Measurements collected from several papers.
Parts stem from different laboratories: compare values within a part only.

Series 1 — technique: RNA Bind-n-Seq; form: RNA; sample: in vitro; concentration: 365 nM; baseline: no-protein control; reading: higher = stronger binding
Target: RNA binding protein fox-1 homolog 2, RRM domain, GST-SBP tag (RBFOX2, Homo sapiens, UniProt O43251-10, residues 100-194)
Notes: natural RNA segment, single round, ends assumed
`GGGAGUUCUACAGUCCGACGAUCCUUGAAAACGUUAUUUAUAAUGAAAUCAACUAAAACUAUUUUUGCUAUAAGUUCUAUAAGGUGCAUAAAACCCUUAAAUUCAUCUAGUAGCUGUUCCCCUGAACAGGUUUUGGAAUUCUCGGGUGCCAA`: “RBNS enrichment (R)” 1.14.
For `GGGAGUUCUACAGUCCGACGAUCAUCUAUAGGGUCGAGCCUAGGGGAGCUUGAGGGAGGGCUGGGGCCUCCUUGUCCUGGAUUUCCAGCUCUCCCCAUGCCCCCUCCCUGAGCACCACCGGCACCGCCUCCCAUGGAAUUCUCGGGUGCCAA`, “RBNS enrichment (R)” read 0.365.
Under “RBNS enrichment (R)”, `GGGAGUUCUACAGUCCGACGAUCUAUGUAAAUAAUGUGUAAAGCCAGUUUUUAUGAUUAAGGAAUCAAAUUUAUUGAAUUUUAUUAUUGAAAGUUGAAACUUAACAUGUAUGAACAAAAACCAAUAAAAGAAUUGGAAUUCUCGGGUGCCAA` is recorded as 0.409.
For `GGGAGUUCUACAGUCCGACGAUCCACUUUAUUUUUUCACAAUUAAAUAAGAAUUGUAGAUUAAUACACCUCUAUCUUGCAUGGGAAGGAGGGAAAUAUGCGUUAUUUACUGUAAAAAAAUGGAAUUUAAAGGAUGGAAUUCUCGGGUGCCAA`, “RBNS enrichment (R)” read 15.4.

Series 2 — technique: RNA Bind-n-Seq; form: RNA; sample: in vitro; concentration: 200 nM; notes: whole 134-nt RNA, ends assumed; with: 150 mM LiCl; baseline: input library; reading: higher = stronger binding; all molecules: 7-deaza-guanosine replaces G
Target: Ras GTPase-activating protein-binding protein 1, full length (G3BP1, Homo sapiens, UniProt Q13283)
Chain of UniProt Q13283 (whole entry, looked up): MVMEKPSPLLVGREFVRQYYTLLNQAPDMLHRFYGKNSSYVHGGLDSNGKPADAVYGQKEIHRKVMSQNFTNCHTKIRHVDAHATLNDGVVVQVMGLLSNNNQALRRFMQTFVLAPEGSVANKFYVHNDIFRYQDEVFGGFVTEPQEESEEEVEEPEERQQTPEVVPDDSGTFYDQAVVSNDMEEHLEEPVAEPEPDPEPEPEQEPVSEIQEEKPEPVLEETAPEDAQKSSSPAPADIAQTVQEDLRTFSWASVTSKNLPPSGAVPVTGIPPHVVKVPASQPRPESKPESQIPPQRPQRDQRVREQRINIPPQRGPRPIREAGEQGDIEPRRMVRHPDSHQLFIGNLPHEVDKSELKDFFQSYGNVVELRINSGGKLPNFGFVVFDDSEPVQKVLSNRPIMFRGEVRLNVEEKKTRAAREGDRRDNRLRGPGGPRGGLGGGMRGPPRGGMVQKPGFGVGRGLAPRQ
The log2 enrichment of `GGGAGUUCUACAGUCCGACGAUCCCUCAAGUCCUGUGCUACACAUCGUAUGUACCGAAUCGGGGCGGGGCGGGCGGAAAGUAUUAUGUUACGCCGUUCGGAUCUGCACUUCCAUGGAAUUCUCGGGUGUCAAGG` is reported as 0.18.
For `GGGAGUUCUACAGUCCGACGAUCUGGCCCUGGUGGCAUGCGGGGAGGAAGAGGUGGCCUCAAGGAUCGUGGUGGUCCCGGUGGAAUGUUCAGAGGUGGCCGUGGUGGAGACAGUGGAAUUCUCGGGUGUCAAGG`, the log2 enrichment was 0.262.
`GGGAGUUCUACAGUCCGACGAUCUGCCUGUAUGGAGUGGAAUGAAUGUUGCUGGUGUCUCUCUGAAGACUCUGCACCCAGAUUUAGGGACUGAUAAAGAUAAGGAACAGUGGAUGGAAUUCUCGGGUGUCAAGG` gave a log2 enrichment of 0.284.

Series 3 — technique: protein binding microarray; form: double-stranded DNA, one strand shown; sample: in vitro; concentration: not given; baseline: not given; reading: higher = stronger binding
Target: Histone acetyltransferase KAT6A, both winged helices, GST fusion (KAT6A, Homo sapiens, UniProt Q92794, residues 1-181)
Notes: 8-mer, flanks averaged, mean of 2 arrays, mostly near background
Residues (chain): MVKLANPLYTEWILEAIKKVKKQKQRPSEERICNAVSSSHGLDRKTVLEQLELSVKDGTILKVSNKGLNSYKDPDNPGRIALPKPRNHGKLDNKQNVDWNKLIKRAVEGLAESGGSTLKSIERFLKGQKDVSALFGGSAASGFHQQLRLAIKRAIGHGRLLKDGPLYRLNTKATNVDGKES
For `ACGCCTCA`, the E-score was -0.00893.
`ATAATATA` gave an E-score of -0.0185.
`GCAATCGC` gave an E-score of 0.149.
`GAGTCCCC` has an E-score of -0.255.

Further values, each from its own experiment
With `PhoQ, residues 284 288 289 292 302 303 SNGLAW` the fold induction was 6.75 (PhoP, residues 12 14 15 18 19 SGWQI (Escherichia coli, UniProt P23836); Sort-seq, refers to: YFP reporter; E. coli; PhoQ-PhoP variant library, with: 10 µM Mg2+; baseline: high Mg2+ state, higher = stronger signaling).

Repeated from above (series 1):
`GGGAGUUCUACAGUCCGACGAUCCUUGAAAACGUUAUUUAUAAUGAAAUCAACUAAAACUAUUUUUGCUAUAAGUUCUAUAAGGUGCAUAAAACCCUUAAAUUCAUCUAGUAGCUGUUCCCCUGAACAGGUUUUGGAAUUCUCGGGUGCCAA`: “RBNS enrichment (R)” 1.14.
For `GGGAGUUCUACAGUCCGACGAUCAUCUAUAGGGUCGAGCCUAGGGGAGCUUGAGGGAGGGCUGGGGCCUCCUUGUCCUGGAUUUCCAGCUCUCCCCAUGCCCCCUCCCUGAGCACCACCGGCACCGCCUCCCAUGGAAUUCUCGGGUGCCAA`, “RBNS enrichment (R)” read 0.365.
